Published values of several laboratories.
Every numbered part comes from another study and shows a few of its results, in no order.

Block 1
Target: RING finger protein unkempt homolog, zinc fingers 1-6, GST-SBP tag (UNK, Homo sapiens, UniProt Q9C0B0, residues 30-357)
UniProt Q9C0B0, sequence (30-357, looked up): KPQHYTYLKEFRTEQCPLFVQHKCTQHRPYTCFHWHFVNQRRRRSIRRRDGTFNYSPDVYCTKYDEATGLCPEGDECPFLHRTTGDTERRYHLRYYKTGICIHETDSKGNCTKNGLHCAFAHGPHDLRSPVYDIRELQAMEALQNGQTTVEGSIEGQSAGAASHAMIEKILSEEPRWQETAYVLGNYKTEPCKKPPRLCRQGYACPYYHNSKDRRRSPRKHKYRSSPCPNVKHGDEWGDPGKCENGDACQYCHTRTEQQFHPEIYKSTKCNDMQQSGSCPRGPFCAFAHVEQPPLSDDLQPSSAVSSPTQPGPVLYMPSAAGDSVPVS
Technique: RNA Bind-n-Seq
Molecule type: RNA
Medium: in vitro
Tested at: not given
Setting: RNA with constant flanks, human and mouse sites, ends assumed
Relative to: input RNA pool
Reading: higher = stronger binding
Oligonucleotide	bound/input enrichment
GGGAGUUCUACAGUCCGACGAUCUGGACUUUAAAAGCAUUGAUGAUGAAGUAGUGGAGCAGAGAUCUGGUUCCUCAACACCUCAGCGUUCCUGUUCUGCUGCUGGCUUACACAGACCAAGAUCAAGUUUUGAUUCCACAACUGCAACAGAGGAUUGAGCAUCA	0.109 ratio
GGGAGUUCUACAGUCCGACGAUCCCGGGACAGUGUGGCCGAGCAGAUGGCUAUGUGCUAGAGGGCAAAGAGUUGGAGUUCUAUCUUAGGAAAAUCAAGGCCCGCAAAGGCAAAUAAAUCCUUGUUUUGUCUUCACCCAUGUAACAACAGAGGAUUGAGCAUCA	0.268 ratio
GGGAGUUCUACAGUCCGACGAUCUACUGCUGGUAUUGUACCAGGAACAUUUUCUUUUAUUGUUACUUGCUUUUUAAACUUUGUUUAGCCACUUAAAGAAAACCUGCUCAUGGCACAACUUGCCUCAAAUCCAUUCCAAGUUGUCAACAGAGGAUUGAGCAUCA	1.32 ratio
GGGAGUUCUACAGUCCGACGAUCGCAAGAAUGCAGAGAGCUGGAAUUCCUUGUCCAACAGUUGUACUACUGAAGAAACACAUUUUAGUUAUGUCUUUUAUUGGCCAUGAUCAAGUUCCAGCCCCUAAAUUAAAAGAAGUAAAGCAACAGAGGAUUGAGCAUCA	0.449 ratio

Block 2
Target: RNA binding protein fox-1 homolog 2, RRM domain, GST-SBP tag (RBFOX2, Homo sapiens, UniProt O43251-10, residues 100-194)
Technique: RNA Bind-n-Seq
Molecule type: RNA
Medium: in vitro
Tested at: 365 nM
Setting: natural RNA segment, single round, ends assumed
Relative to: no-protein control
Reading: higher = stronger binding
Oligonucleotide	RBNS enrichment (R)
GGGAGUUCUACAGUCCGACGAUCAGCAUUAUUGCUUUAGAAUGUUCAAAUAAAAUUUCCUGACCAAAUUGUUUUGUGACAGUAGAUGUGUUUAUAAUUUGAAGAUACCUGCUCAGAAGGCCAUAUUAUAGAAUUGGAAUUCUCGGGUGCCAA	0.784
GGGAGUUCUACAGUCCGACGAUCAAAGGUAUUCUUAAGAAUUUGCAGGUACUACAGAUUUUCAAAACUGAAUGAGAGAAAAUUGUAUAACCAUCCUGCUGUUCCUUUAGUGCAAUACAAUAAAACUCUGAAAUUGGAAUUCUCGGGUGCCAA	1.29
GGGAGUUCUACAGUCCGACGAUCAGGUGCAGAGAUGAAGUGAGCUUAGAGAUGUUGCAAAUGCUCUUUAUCCCUUCAGCUCUCUGAUCUGCUCUUUCUUCAUGAUACUUAGUCUGCAGGGCAUAUUAAGAUCAUGGAAUUCUCGGGUGCCAA	0.423
GGGAGUUCUACAGUCCGACGAUCCCCGUCCAACUCCCUGGAGACCCUGGAAGUGAUGUGUGCACAUCCGGUGACCCUUGGCCACCAGACAAUACAGGGAGGUACCUGGGGAGCAGCUAGGAAAUCACAGGCCCUGGAAUUCUCGGGUGCCAA	0.362

Block 3
Target: Protein max, full length (MAX, Homo sapiens, UniProt P61244-2, residues 1-151)
Technique: protein-binding microarray
Molecule type: double-stranded DNA, one strand shown
Medium: in vitro
Tested at: not given
Setting: k-mer, scored over probes, only values ≥0.25
Reading: higher = stronger binding
Oligonucleotide	E-score
GTGTGCGA	0.284
AACGCACA	0.265
CTGACACA	0.272
CATGACTC	0.27
CATGTGGC	0.483

Further values, each from its own experiment
Substance	target	test	test system	setting	how to read	measurement	value
PhoQ, residues 284 288 289 292 302 303 SSCLAV	PhoP, residues 12 14 15 18 19 AQALL (Escherichia coli, UniProt P23836)	Sort-seq, item: YFP reporter	E. coli	PhoQ-PhoP variant library, with: 10 µM Mg2+	relative to: high Mg2+ state, higher = stronger signaling	fold induction	12.6

A few entries again (block 2):
Oligonucleotide	RBNS enrichment (R)
GGGAGUUCUACAGUCCGACGAUCAGGUGCAGAGAUGAAGUGAGCUUAGAGAUGUUGCAAAUGCUCUUUAUCCCUUCAGCUCUCUGAUCUGCUCUUUCUUCAUGAUACUUAGUCUGCAGGGCAUAUUAAGAUCAUGGAAUUCUCGGGUGCCAA	0.423
